Measured values of several laboratories.
Lines come from different studies, so protocols differ. “And” joins repeats or separate records; there may be more than shown.

O=C(OC[C@@]1(O)C(=O)C=C[C@H]2[C@@H]1[C@H]1C=C[C@@H]2C(=O)[C@]1(O)COC(=O)c1ccccc1)c1ccccc1 — IC50 (K562; cell growth or viability, MTT): 60.9 µM
O=C1NC2(CC2)COc2ncc(F)cc2[C@H]2COCCN2c2ccn3ncc1c3n2 — structural aberrations (CHL; 150 µg/mL, 4 h, with rat liver S9): 1%
COc1ccc(O)cc1-c1c[nH]c2ncc(-c3cncc(C(=O)N(C)C)c3)cc12 — cytotoxicity (Ba/F3 parental, IL-3-dependent; concentration not given): not toxic
NC[C@H]1O[C@H](O[C@H]2[C@H](O)[C@@H](O[C@H]3O[C@H](Cn4cc(CNC(=S)Nc5ccc6c(c5)C(=O)OC65c6ccc(O)cc6Oc6cc(O)ccc65)nn4)[C@@H](O)[C@H](N)[C@H]3O)[C@H](N)C[C@@H]2N)[C@H](O)[C@@H](O)[C@@H]1O — cells with uptake (C2C12; flow cytometry; 5 µM, 24 h): 10% and ~10%
CN(C)C(=O)COC(=O)Cc1ccc(OC(=O)c2ccc(NC(=N)N)cc2)cc1 — CC50 (Calu-3; 48 (unit not given)): > 500 µM
Cn1c(=O)c(-c2ccccc2Cl)cc2cnc(Nc3cccc(S(C)(=O)=O)c3)nc21 — CC50 (HCT-8; cell growth or viability; 48 h): > 25 µM
CC1(C)C(NC(=O)C(=NOC2(C(=O)O)CC2)c2csc(N)n2)C(=O)N1OS(=O)(=O)O (stereo not shown) — CC50 (PANC-1; cell growth or viability): > 100 µM
Cc1nc(Nc2ncc(C(=O)Nc3c(C)cccc3Cl)s2)cc(N2CCN(C(=O)CCOCCNC(=O)CN)CC2)n1 — viability (K562; cell growth or viability, CCK-8; 5 nM): 71% and 69%
N[C@@H](CNC(=O)N[C@@H](CS)C(=O)NCC(=O)O)C(=O)O — tight junction protein level (RPMI-2650; immunoblot, item: ZO-1, claudin-1, occludin; 0.5 mM, up to 8 h): no effect
Cc1cc(/C=C/C#N)cc(C)c1Oc1nc(NC2CCN(Cc3ccc(S(C)(=O)=O)cc3)CC2)nc2ncccc12 — CC50 (MT4; cell growth or viability, MTT; 5 days): 21.1 µM
CCc1c(-c2ccc3[nH]ncc3c2)cnc(N)c1-c1ccc(O)cc1 — viability (CHP-212 resistant sublines (heterozygous USP7 V517F); cell viability; 0.1953 µM): 106% and 101%
CC(C)C[C@@H]1NC(=O)[C@@H](CC(C)C)NC(=O)[C@H](CCN)NC(=O)[C@@H](NC(=O)[C@H](CCN)NC(=O)[C@@H](N)[C@@H](C)O)CCNC(=O)[C@H]([C@@H](C)O)NC(=O)[C@H](CCN)NC(=O)[C@H](CCN)NC1=O — hemolysis (sheep erythrocytes; 512 µg/mL, 37 °C; baseline: Triton X-100): < 5%
C=CC(=O)Oc1ccc(OC)c(-c2c[nH]c3ncc(-c4cncc(C(=O)N(C)C)c4)cc23)c1 — cytotoxicity (Ba/F3 parental, IL-3-dependent; concentration not given): not toxic

Repeated from above:
Cc1nc(Nc2ncc(C(=O)Nc3c(C)cccc3Cl)s2)cc(N2CCN(C(=O)CCOCCNC(=O)CN)CC2)n1 — viability (K562; cell growth or viability, CCK-8; 5 nM): 71% and 69%
O=C(OC[C@@]1(O)C(=O)C=C[C@H]2[C@@H]1[C@H]1C=C[C@@H]2C(=O)[C@]1(O)COC(=O)c1ccccc1)c1ccccc1 — IC50 (K562; cell growth or viability, MTT): 60.9 µM
